{"data": "Measurements collected from several papers", "note": "A part holds a random share of what one study measured.", "chain of UniProt P50406 (whole entry, looked up)": "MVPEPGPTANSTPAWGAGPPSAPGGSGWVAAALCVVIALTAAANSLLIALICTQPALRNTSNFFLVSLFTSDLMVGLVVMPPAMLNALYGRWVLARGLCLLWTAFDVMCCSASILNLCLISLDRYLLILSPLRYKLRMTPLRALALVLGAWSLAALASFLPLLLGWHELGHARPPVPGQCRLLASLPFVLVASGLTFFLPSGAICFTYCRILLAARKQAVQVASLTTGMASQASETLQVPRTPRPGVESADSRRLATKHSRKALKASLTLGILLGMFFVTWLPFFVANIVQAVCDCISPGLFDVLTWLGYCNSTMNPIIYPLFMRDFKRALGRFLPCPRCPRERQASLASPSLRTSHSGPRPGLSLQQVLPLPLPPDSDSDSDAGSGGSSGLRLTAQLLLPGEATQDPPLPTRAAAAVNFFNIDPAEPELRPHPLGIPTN"}
{"data": "Block 1", "target": "Ephrin type-B receptor 3 (EPHB3, Homo sapiens, UniProt P54753)", "effect on": "enzyme activity", "action": "inhibitor", "tested at": "0.5 µM", "relative to": "control", "Residues (P54753 1-998)": "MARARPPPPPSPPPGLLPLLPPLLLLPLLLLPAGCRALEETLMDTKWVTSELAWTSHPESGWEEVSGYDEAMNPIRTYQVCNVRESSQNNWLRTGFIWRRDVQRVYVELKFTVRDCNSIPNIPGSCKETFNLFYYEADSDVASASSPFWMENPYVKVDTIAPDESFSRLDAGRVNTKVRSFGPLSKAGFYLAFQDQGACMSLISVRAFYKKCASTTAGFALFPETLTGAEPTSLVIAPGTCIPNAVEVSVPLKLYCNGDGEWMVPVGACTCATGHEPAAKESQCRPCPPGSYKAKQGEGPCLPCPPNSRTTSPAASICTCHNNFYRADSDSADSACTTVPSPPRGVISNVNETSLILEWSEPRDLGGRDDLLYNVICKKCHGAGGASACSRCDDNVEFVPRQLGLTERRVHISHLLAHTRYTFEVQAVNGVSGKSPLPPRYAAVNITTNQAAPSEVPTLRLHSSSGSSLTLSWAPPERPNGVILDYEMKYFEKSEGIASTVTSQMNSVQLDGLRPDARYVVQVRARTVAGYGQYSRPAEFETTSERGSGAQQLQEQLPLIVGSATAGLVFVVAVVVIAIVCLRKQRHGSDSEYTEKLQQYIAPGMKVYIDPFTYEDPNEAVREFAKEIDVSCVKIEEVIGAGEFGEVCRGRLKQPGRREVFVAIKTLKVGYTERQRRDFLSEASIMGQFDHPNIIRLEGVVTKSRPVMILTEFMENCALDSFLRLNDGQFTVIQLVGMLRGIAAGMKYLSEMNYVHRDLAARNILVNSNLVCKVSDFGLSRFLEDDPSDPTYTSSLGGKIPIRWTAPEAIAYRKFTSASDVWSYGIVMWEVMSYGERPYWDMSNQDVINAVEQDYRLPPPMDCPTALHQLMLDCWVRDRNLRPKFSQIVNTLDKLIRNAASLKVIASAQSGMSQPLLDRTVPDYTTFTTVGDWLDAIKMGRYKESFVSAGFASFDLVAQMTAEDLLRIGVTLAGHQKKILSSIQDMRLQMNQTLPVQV"}
{"SMILES": "O=C1Cc2c([nH]c3ccc(Br)cc23)-c2ccccc2N1", "remaining activity [%]": 92.3}
{"SMILES": "COc1cccc(-c2cc(=O)c3ccccc3o2)c1N", "remaining activity [%]": 91.9}
{"SMILES": "COc1ccc2c(c1)c(C1=C(c3c[nH]c4ccccc34)C(=O)NC1=O)cn2CCCN(C)C", "remaining activity [%]": 97}
{"SMILES": "O=C(c1cc2cc(O)ccc2[nH]1)c1cc2cc(O)ccc2[nH]1", "remaining activity [%]": 92.3}
{"SMILES": "c1ccc2c(-c3ccncc3)c[nH]c2c1", "remaining activity [%]": 100}
{"SMILES": "O=C1NC(=O)c2c1c1c3ccccc3[nH]c1n1cncc21", "remaining activity [%]": 79.7}
{"SMILES": "O=c1cc(N2CCOCC2)oc2c(-c3ccccc3)cccc12", "remaining activity [%]": 94.6}
{"SMILES": "c1ccc(-c2n[nH]c3c2oc2ccccc23)cc1", "remaining activity [%]": 84.7}
{"SMILES": "COc1ccc(COc2ccc(Cc3cnc(N)nc3N)cc2OC)cc1", "remaining activity [%]": 91.8}
{"data": "Block 2", "cell line": "mouse MPNST tumor cells", "technique": "high-content immunofluorescence imaging", "measured": "nuclear SOX9", "tested at": "10 µM", "time": "12 h", "setting": "mean of 2 replicates", "relative to": "DMSO control", "reading": "higher = more nuclear SOX9"}
{"Compound": "NC(N)=N/N=C/c1ccccc1Cl", "nuclear SOX9 intensity": "119 % of DMSO"}
{"Compound": "CO[C@H]1/C=C/O[C@@]2(C)Oc3c(C)c(O)c4c(O)c(c(/C=N/N5CCN(C6CCCC6)CC5)c(O)c4c3C2=O)NC(=O)/C(C)=C\\C=C\\[C@H](C)[C@H](O)[C@@H](C)[C@@H](O)[C@@H](C)[C@H](OC(C)=O)[C@@H]1C", "nuclear SOX9 intensity": "80.3 % of DMSO"}
{"Compound": "CC(=O)OCC(=O)[C@@]1(O)CC[C@H]2[C@@H]3CCC4=CC(=O)C=C[C@]4(C)[C@@]3(F)[C@@H](O)C[C@@]21C", "nuclear SOX9 intensity": "75.3 % of DMSO"}
{"Compound": "CCOc1ccc(Cc2nccc3cc(OCC)c(OCC)cc23)cc1OCC", "nuclear SOX9 intensity": "99.3 % of DMSO"}
{"data": "Block 3", "SMILES": "CC(C)n1cnc(-c2ccc(F)cc2)c1-c1ncc(C(=O)Nc2ccc(N3CCN(C)CC3)cc2)[nH]1", "technique": "Phase 2a trial", "species": "idiopathic pulmonary fibrosis patients"}
{"test": "measured: chest discomfort", "setting": "60 mg once daily, grade 3 maximum intensity", "patients with adverse events [%]": 0}
{"test": "measured: blood alkaline phosphatase increased", "setting": "dose not given, grade 3 maximum intensity, all arms", "patients with adverse events [%]": 0}
{"test": "measured: infections and infestations", "setting": "dose not given, grade 5 maximum intensity, all arms", "patients with adverse events [%]": 0}
{"test": "measured: chest discomfort", "setting": "30 mg once daily, grade 4 maximum intensity", "patients with adverse events [%]": 0}
{"test": "measured: back pain", "setting": "60 mg once daily, grade 3 maximum intensity", "patients with adverse events [%]": 0}
{"data": "Mixed results"}
{"Structure (SMILES)": "NS(=O)(=O)c1cc(NC(=O)C2(c3ccccc3Cl)CC2)ccc1Oc1cccc(Cl)c1", "target": "5-hydroxytryptamine receptor 6 (HTR6, Homo sapiens, UniProt P50406)", "test": "cell-free assay", "setting": "10 µM", "quantity": "inhibition", "result": "-4.73%"}
{"note": "A few entries again (block 2):"}
{"Compound": "NC(N)=N/N=C/c1ccccc1Cl", "nuclear SOX9 intensity": "119 % of DMSO"}
